Published values of several laboratories.
Every numbered part comes from another study and shows a few of its results, in no order. Positions count from the first letter of the parent shown.

Series 1
Target: CRIPT, C-terminal peptide
Technique: DHFR complementation, deep sequencing
Sample: yeast
Notes: single substitutions, model-inferred values
Relative to: wild type
Direction: higher = weaker binding
Starting sequence: ERBIN, PDZ domain 1 (human); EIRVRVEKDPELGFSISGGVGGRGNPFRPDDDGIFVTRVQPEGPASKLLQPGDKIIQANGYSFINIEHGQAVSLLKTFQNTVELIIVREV; partner TKNYKQTSV
Variant | binding free energy change
R23L | -0.0375 kcal/mol
L12S | 1.31 kcal/mol
V4P | 0.719 kcal/mol
E1F | 0.241 kcal/mol
L48M | 0.0489 kcal/mol
R23Q | -0.341 kcal/mol
E67N | 0.244 kcal/mol
T37M | 0.143 kcal/mol

Series 2
Target: Sal-like protein 4, full length isoform B (SALL4, Homo sapiens, UniProt Q9UJQ4-2, residues 1-616)
Technique: universal PBM
Molecule type: double-stranded DNA, one strand shown
Sample: in vitro
Tested at: not given
Notes: 8-mer, flanks averaged, mean of replicates
Direction: higher = stronger binding
Oligonucleotide | E-score
CTCTCGAC | -0.231
AGATCGAC | -0.121
AGCTGGAT | -0.119
AGGGTCCA | -0.302
GTTCCATA | 0.188
AAAAGTGG | 0.15
GATCCTTA | 0.0362
GAAGATTA | 0.229

Single results of other studies
Substance | tested on | test | test system | setting | how to read | endpoint | result
PhoQ, residues 284 288 289 292 302 303 SLSVQF | PhoP, residues 12 14 15 18 19 QWHVF (Escherichia coli, UniProt P23836) | Sort-seq, measured: YFP reporter | E. coli | PhoQ-PhoP variant library, with: 10 µM Mg2+ | relative to: high Mg2+ state, higher = stronger signaling | fold induction | 3.28
O=C1OCc2c(-c3ccccc3)sc(-c3ccc4c(c3)OCO4)c21 |  |  | mouse, microsomes or S9 | 2 µM, 0.5 h |  | remaining compound | 36.9%

Excerpt of the above (series 2):
Oligonucleotide | E-score
AGATCGAC | -0.121
AGCTGGAT | -0.119
AGGGTCCA | -0.302
